Measured values pooled from the literature.
Every numbered part comes from another study and shows a few of its results, in no order. Changes are numbered by the printed parent chain.

Series 1
Target: CCND1, cyclin fold, Cln2 fusion (human)
Method: yeast growth competition, sequencing
Matrix: yeast
Notes: weak parent motif
Baseline: not given
Reading: higher = stronger binding
Starting sequence: GMNC docking peptide (human); KNAKRNLSSEFAN; partner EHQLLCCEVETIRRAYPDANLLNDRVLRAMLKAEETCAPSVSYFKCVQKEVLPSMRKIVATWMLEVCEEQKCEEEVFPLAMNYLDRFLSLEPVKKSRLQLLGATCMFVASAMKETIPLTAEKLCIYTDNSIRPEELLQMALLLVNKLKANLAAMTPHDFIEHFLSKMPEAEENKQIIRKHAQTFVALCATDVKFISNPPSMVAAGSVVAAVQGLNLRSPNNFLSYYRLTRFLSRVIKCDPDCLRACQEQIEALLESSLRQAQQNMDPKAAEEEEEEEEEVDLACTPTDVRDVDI
For `K4D`, “normalised enrichment score” read 0.057.
Under “normalised enrichment score”, `S9Q` is recorded as 0.459.
Under “normalised enrichment score”, `A3Y` is recorded as 0.148.
`F11E`: “normalised enrichment score” 0.0788.
`S9H` — result for “normalised enrichment score”: 0.442.
`F11L`: “normalised enrichment score” 0.558.

Series 2
Target: Centromere-binding protein 1, full length, His-tagged (CBF1, Saccharomyces cerevisiae, UniProt P17106, residues 1-351)
UniProt P17106, sequence (whole entry, looked up): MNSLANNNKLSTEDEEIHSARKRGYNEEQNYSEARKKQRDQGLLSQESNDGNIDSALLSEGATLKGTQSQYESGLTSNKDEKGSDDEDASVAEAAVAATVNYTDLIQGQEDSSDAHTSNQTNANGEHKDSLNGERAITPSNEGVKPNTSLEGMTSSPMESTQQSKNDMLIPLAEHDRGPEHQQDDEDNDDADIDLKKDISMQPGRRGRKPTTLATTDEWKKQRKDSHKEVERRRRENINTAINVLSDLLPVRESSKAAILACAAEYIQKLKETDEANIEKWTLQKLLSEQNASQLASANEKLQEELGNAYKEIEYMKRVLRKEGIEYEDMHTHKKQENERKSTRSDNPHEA
Method: competition protein-binding microarray
Molecule type: double-stranded DNA, one strand shown
Matrix: in vitro
Tested at: 2 µM
Notes: whole 60-bp probe, lowest competitor level
With: Pho4 competitor, 0.05 µM
Reading: higher = stronger binding
The fluorescence intensity of `CTTCTGTAAATTTGTCACAAGACTTGACGCGCCCCGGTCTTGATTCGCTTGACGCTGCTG` is reported as 143 a.u.
`AAAGCGGTAATTTGTTGGGTGGGTGCAGATATCTATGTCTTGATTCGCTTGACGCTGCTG` gave a fluorescence intensity of 81.4 a.u.
With `CGCTTTCTAAGGAGCCACGTGTAGGGGGAGCTGGTGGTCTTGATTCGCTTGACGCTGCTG` the fluorescence intensity was 730 a.u.
For `GGGCCCGCAGTTTTGCACATGCGCGTTACTGGATCGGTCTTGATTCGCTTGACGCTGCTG`, the fluorescence intensity was 85.5 a.u.
`CTAACGAAGGTTTTTCACGTGCCATACAAGCCAAGTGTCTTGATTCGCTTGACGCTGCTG` has a fluorescence intensity of 1110 a.u.
With `AACTTGTGCTTGAATCAAATGGTTACAGTGGACAGTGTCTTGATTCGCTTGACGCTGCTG` the fluorescence intensity was 66.8 a.u.
The fluorescence intensity of `CTTTCCCGATCTTGTGAGGTGGGTGTAGCACATTTGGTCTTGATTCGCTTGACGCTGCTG` is reported as 76.5 a.u.
`AAATTACTAAGTTGCAGGGTGGGTGACGCCGTATGAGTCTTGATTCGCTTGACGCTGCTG` gave a fluorescence intensity of 64.3 a.u.
`GAAAGAGCGAAAATACTCGTGATGGAAACTCTTTTAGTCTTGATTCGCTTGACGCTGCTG` gave a fluorescence intensity of 223 a.u.
`TGAACGAAAAGTGTAGGCGTGCCAGAAATGTCAACAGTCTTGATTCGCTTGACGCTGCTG` gave a fluorescence intensity of 103 a.u.

Series 3
Target: Interferon regulatory factor 3, full length, phosphomimetic (IRF3, Homo sapiens, UniProt Q14653, residues 1-427, S386D/S396D/S398D/S402D/T404D/S405D)
UniProt Q14653, sequence (whole entry, unmodified, looked up): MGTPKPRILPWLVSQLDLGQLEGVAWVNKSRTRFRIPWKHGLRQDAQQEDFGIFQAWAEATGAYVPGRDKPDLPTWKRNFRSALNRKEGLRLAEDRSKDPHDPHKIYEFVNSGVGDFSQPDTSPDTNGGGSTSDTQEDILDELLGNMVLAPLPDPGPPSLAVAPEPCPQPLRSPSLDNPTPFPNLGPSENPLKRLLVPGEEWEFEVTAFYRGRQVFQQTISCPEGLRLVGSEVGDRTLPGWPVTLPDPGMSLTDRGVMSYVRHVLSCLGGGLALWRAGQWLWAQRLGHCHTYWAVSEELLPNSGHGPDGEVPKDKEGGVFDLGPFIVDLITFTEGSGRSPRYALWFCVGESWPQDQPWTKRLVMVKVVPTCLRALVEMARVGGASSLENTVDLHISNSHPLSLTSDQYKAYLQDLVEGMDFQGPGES
Method: protein-binding microarray
Molecule type: double-stranded DNA, one strand shown
Matrix: in vitro
Tested at: 2540 nM top
Notes: 60-bp whole probe
With: salmon DNA 0.4 mg/ml
Baseline: random background probes
Reading: higher = stronger binding
All sequences stand within: GCCTAGCAC … GTCTTGATTCGCTTGACGCTGCTG
Under “fitted relative affinity”, `TTAGGACTGGGGTTCGGTTAGTGCTAG` is recorded as -0.702 z-score.
`GACGGTATCCTTTTCATGACGTGCTAG`: “fitted relative affinity” 7.18 z-score.
For `CTTAGACTGTCCTGCTGGAGGTGCTAG`, “fitted relative affinity” read -0.122 z-score.
Under “fitted relative affinity”, `GACGGTATCCTCATCCTGACGTGCTAG` is recorded as 1.9 z-score.
`TCAGGTTCCCTTTTCCTTTAGTGCTAG` — result for “fitted relative affinity”: 6.73 z-score.
Under “fitted relative affinity”, `AGATTTATCAAATGTGGGATTGTGCTA` is recorded as -0.0969 z-score.
For `CATCCTGAGTCAAGTCAAGTGTGCTAG`, “fitted relative affinity” read 1.18 z-score.
For `TCAGTTGTAGGTTTTCTGACTGTGCTA`, “fitted relative affinity” read 0.311 z-score.

Single results of other studies
For `PhoQ, residues 284 288 289 292 302 303 SVTLVV`, the fold induction was 10.7 (PhoP, residues 12 14 15 18 19 LWHVM (Escherichia coli, UniProt P23836); Sort-seq, measured: YFP reporter; E. coli; PhoQ-PhoP variant library, with: 10 µM Mg2+; baseline: high Mg2+ state, higher = stronger signaling).
